Measurements of several laboratories.
A part holds a random share of what one study measured.

Series 1
Target: RNA binding protein fox-1 homolog 2, RRM domain, GST-SBP tag (RBFOX2, Homo sapiens, UniProt O43251-10, residues 100-194)
Technique: RNA Bind-n-Seq
Molecule type: RNA
Matrix: in vitro
Tested at: 365 nM
Notes: natural RNA segment, single round, ends assumed
Reference: no-protein control
Reading: higher = stronger binding
Residues (chain): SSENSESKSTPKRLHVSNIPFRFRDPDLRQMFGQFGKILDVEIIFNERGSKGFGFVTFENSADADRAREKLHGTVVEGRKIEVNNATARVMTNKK
Sequence | RBNS enrichment (R)
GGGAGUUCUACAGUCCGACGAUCAUCUUUGGCUCCUUCUGUCUCAGAAUGAUGGGAAGCCUGACGGGGACCUGAGGAUUGAGGUCCUUGCUUUCUCCUGGUGGCCAUGGGACCUCAGAGGCAUUUUUGCCAAGUGGAAUUCUCGGGUGCCAA | 0.311
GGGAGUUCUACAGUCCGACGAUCUUGUUGUAAGCUAACAAGUGGAGAAACACUUUUUUUUUUCAGAAAUGGUUUGGAUUAUUUAUAGUCCAUUUGUAAAAAAUAUUACAUCAUCUAGUUAAAAAAAAGAGUGUUGGAAUUCUCGGGUGCCAA | 0.412
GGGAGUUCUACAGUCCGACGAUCUUUGUUUGGUUUUUUAAGAAGAAUUUAUAUCCGGGUUUAGUGUUUAUCAUAUAUAUGGGUACUCUGUAAUAUCUAAAAGCUUAGAAAUGGGAUCUUGCUCACAAGAAUCAUGGAAUUCUCGGGUGCCAA | 0.99
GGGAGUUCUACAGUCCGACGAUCGGGCAACUAUUAUUAUCCCUAUUUUACAAAACUGAGGCUUAGUGAGGUUCAGCCACAUGCCUAGACUUAUAUACUAGUUAGUGGUGCAGCCAGGGAGAGGACUCAGAUUUUGGAAUUCUCGGGUGCCAA | 0.282
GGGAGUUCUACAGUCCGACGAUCUUCUCUGUGUAGCCCUGGCUGUCCUGGAACUCACUUUGUAGACCAGGCUGGCCUCGAACUCAGAAAUCUGCCUGCCUCUGCCUCCCAAGUGCUGGGAUUAAAGGCGUGGGUGGAAUUCUCGGGUGCCAA | 0.243
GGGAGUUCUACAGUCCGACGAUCACAGGUGUACUCUGCCAUGUGUAGCUCUUAAAACGGCCCAUGGUACCUACUAAGCAGAGCAAGGCCUGGGUAUCAAACAGUUCUGUGUUAACAGUUCCUAAAUUCUAAGGUGGAAUUCUCGGGUGCCAA | 0.39
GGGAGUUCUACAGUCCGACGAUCAGAAUCUCGACGGGUUGCUAUAAUGGUCUGCACCCCAAGACUUCCAUUACUUACCUAGUCAUUGUGGAACAUGACUAUGGAGAGCAUUGUAUAUUUCUAUCUGGUAGUAAUGGAAUUCUCGGGUGCCAA | 0.742
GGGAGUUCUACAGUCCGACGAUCUGGAGAAACCCUUCGCCAUUGCCAAGGAUAGAGAGCCUGGGGGACCUCAUCCCUCUAAGCAGCUGUCUGUGUGGGUCCUGUCAAUCCCCACACAGACGAAGGUAGCCAGUUGGAAUUCUCGGGUGCCAA | 0.432
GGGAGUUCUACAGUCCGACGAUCUUAUGAAUAGAGACAUAUUAAAAUAAUGUUUACAUCUUAGAAAAAACAUAGAUAGUGCUAGUAAUAUUACUUAUAACUGUAAUAUAUAGAUUCAGAAAUACAUUUUCAUUUGGAAUUCUCGGGUGCCAA | 0.912
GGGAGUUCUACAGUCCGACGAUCCAACCUCCCACUGCUGGAGUGCGAGUGGGAAUCAGAGCCUCCUGAAGCCUCUGGGAACUCCUCCUGUGGCCACCACCAAAGGAUGAGGAAUCUGAGUUGCCAACUUCAGGUGGAAUUCUCGGGUGCCAA | 0.291
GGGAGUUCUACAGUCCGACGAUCUGGGAUGGGAGAGGAUGUCCCCAGGAUGGGGACAGAGGAAGCCCUGCUAGGGUCUCCUAGCCCAGUAAGCCAAAUGGGAACUAUAAGCAGAUCAAAAUUUUACACUAGCUUGGAAUUCUCGGGUGCCAA | 0.525
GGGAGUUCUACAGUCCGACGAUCCUAGGAUGCUGUCAGCCUGAGAGUGAAAGUGGGCACUCAUUUCUCCUGGUUUUUGAAGAGCCUGUUAAGUACACUUGGCUAUUUCCUCCUUGGAGUCCUGUUCUUGCUCAUGGAAUUCUCGGGUGCCAA | 0.615

Series 2
Target: Histone acetyltransferase KAT6A, winged helix 2, GST fusion (KAT6A, Homo sapiens, UniProt Q92794, residues 85-181)
Technique: protein binding microarray
Molecule type: double-stranded DNA, one strand shown
Matrix: in vitro
Tested at: not given
Notes: 8-mer, flanks averaged, mean of 2 arrays, mostly near background
Reference: not given
Reading: higher = stronger binding
Residues (chain): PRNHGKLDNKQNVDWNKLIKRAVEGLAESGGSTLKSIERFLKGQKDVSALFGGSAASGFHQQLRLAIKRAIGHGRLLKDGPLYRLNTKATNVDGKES
Sequence | E-score
GCCCGCCC | 0.198
CCAGTAGA | -0.137
CCTGGCCG | 0.0776
ATCACGGC | 0.0176
CGTCGCCA | 0.146
GGATGAAA | 0.197
GCTCGTCC | 0.161

Series 3
Target: Interferon regulatory factor 5, full length, phosphomimetic (IRF5, Homo sapiens, UniProt Q13568-2, residues 1-514, K96S/S451D/S453D/S456D/S462D)
Technique: protein-binding microarray
Molecule type: double-stranded DNA, one strand shown
Matrix: in vitro
Tested at: 250 nM
Notes: 60-bp whole probe
Added: salmon DNA 0.4 mg/ml
Reference: random background probes
Reading: higher = stronger binding
All sequences stand within: GCCTAGCAC … GTCTTGATTCGCTTGACGCTGCTG
Sequence | log fluorescence [z-score]
TTAGATATCAGACTGGTTTAGTGCTAG | 0.365
GACGGTCTCGGCCTCGGGACGTGCTAG | -0.406
GACGATTTCCGGACTGGAGACGTGCTA | -0.0124
TAGAGGGAGTAAAGGAAAGAGTGCTAG | -0.391
GGCGGTTTCCTTCTCCTGACGTGCTAG | 0.716
TTAGGTTTCCTACTGCTGTAGTGCTAG | 0.43
TAGAATGTCCTTTCTCCATGGGTGCTA | 0.681
TTAGGATTGCTTATCCTTTAGTGCTAG | -0.54
GACGATTTCGTGTTTCGAGACGTGCTA | 2.93
TTACGACTGCTACTGCTTTAGTGCTAG | 0.593
TACGGTTTCGGTATCGGGACGTGCTAG | 9.66

Single results of other studies
Substance | target | test | test system | conditions | scale | quantity | result
PhoQ, residues 284 288 289 292 302 303 SVHLDV | PhoP, residues 12 14 15 18 19 TPLRH (Escherichia coli, UniProt P23836) | Sort-seq, measured: YFP reporter | E. coli | PhoQ-PhoP variant library, added: 10 µM Mg2+ | reference: high Mg2+ state, higher = stronger signaling | fold induction | 0.787

Repeated from above (series 2):
Sequence | E-score
GGATGAAA | 0.197
ATCACGGC | 0.0176
